Measurements collected from several papers.
Each numbered part is a random draw from the data of one study; scales do not carry over between parts.

Series 1
Target: RNA binding protein fox-1 homolog 2, RRM domain, GST-SBP tag (RBFOX2, Homo sapiens, UniProt O43251-10, residues 100-194)
Method: RNA Bind-n-Seq
Molecule type: RNA
Medium: in vitro
Concentration: 365 nM
Setting: natural RNA segment, single round, ends assumed
Reference: no-protein control
Direction: higher = stronger binding
Endpoint: RBNS enrichment (R)
Shared flanks, not repeated: GGGAGUUCUACAGUCCGACGAUC … UGGAAUUCUCGGGUGCCAA
Construct (chain): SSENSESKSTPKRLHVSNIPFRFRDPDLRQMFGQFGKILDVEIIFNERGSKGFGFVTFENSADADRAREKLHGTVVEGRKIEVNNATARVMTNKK
UUUGCCUCAAAAUGUCCCUGUUUGAAAGAUUAGCACAAAAGUCUUGAUAGCACAACACAAAUUCCAUCCAAGAGGAGAAUCUUCCCCAGGGUUUAGUCCUGGGGCUGGCA: 2.36
UUUUCCUACAUCAUUUAGAAUUUUAUUUCCCUGAUUCAGUUUUUGCUGCUGUGAAACAGCUCUGAUGAACACUAAAUAUUAAUUUCAAUUAGCUAGAUUGUACAUACUUG: 0.258
UUAUCUGUAAAUUUGCUCAAAUAAUAAGAUAAUGUACAACACUAAUAGCCAGAUAUGAGUUUAAACUUUUUUCAUGCUUGUAUAUUUUAUUUUUAACUAUAUACAAGUAU: 1.11
GCUUUCUCUUACAAAAAGAAAAAAAAAAUCCUGUUGUAUUAACAUUUAAAAACAGAAUUGUGUUAUGUGAUCAGUUUUGGGGGUUAACUUUGCUUAAUUCCUCAGGCUUU: 0.423
CAAGAUGUAACUCUGGUUAUUUCAGUCAUAUCUGUGACUCUAUCAUGUACAGUUUCCUGAAUUGUCACUGUGCAUCCAAACGUAAUGAGUCUAACAGACACUGAUUUCAU: 0.329
CCCUGCUAGUUCCUGUCAAGGCAUGCCCAGGUUCUCCACAGCUUUCCAGUGCAAAAGGCCUAGACACUCCCAGUAGCCCAGCCUCUCUGGUCAUCUCUCCGUUCACACCC: 0.978
GCUGCUGCUAGGCCUUUAUUCCCAGGGUUUGGCUGCAUUGGCAGUGAGGCAGGUGGCUGGGGGUGACACCAGGUGACAAGGGGACUCAGUGGCAGGGGGUCACACCAGGC: 1.08
UACUGCUUGUGUCUCUUUGGUGCAAUAAUUAAAAUGGAAGGAGGAGCUGAACUGGGAACCCUACAGCCUAGUGAUUCUUCUACUUGCUCGCUAUAGCUUUCUGUUGGCAA: 0.33
AUUGCUCUUCUUCUUUUAGACUGGUUGUCAUAGUUUCUGCAAAGGGCAAGUUCAUUGUGCUACCCUCCCAAUUCCCCCAUUAUGGAGUAACCAGUAUUAUUCAGUGAGCU: 0.412
ACACCAGAAAAAAGAGCCUGAGAGUGGUCGCUUCCAUCUUCCACUCCCCUUGUUCUUGGGGGGAAAGGAAGGAGACUUCUGCUGUUGCAGUGAGCCCAGAGUGGAUUGGC: 0.245
CUUUGCAAAAUGUAUGUUACAAUAGAUAGUGUCAUGUUGCAGGUUCAACGUUAUUUACAUGUAAAUAGACAAAAGGAAACAUUUGCCAAAAGCGGCAGAUCUUUACUGAA: 0.332
UGGUAGUGAUGUAUAUUUUACAUUUGUCAUUUCAGUGUUACUGGAGUUUUCUUCAUUGUGCACACAGGACAAAUCUGAUCUCUUUGGGAAAAAAUAGAAAUAAAACAAUC: 0.426

Series 2
Effect on: peptide binding
Molecule type: peptide
Medium: yeast competitive growth
Together with: B1-Cln2 chimera
Direction: direction not given
Endpoint: enrichment score
AEHPKPSACRNLFGPV: -0.726
ASVLSKPIFCFVKD: 0.216
NEGVSNAVRRSLYIRD: -0.547
RTEALEQGGLPKKLIF: 0.35
NESHLDKEHDAVEVAD: 0.743
EHCRVLFLDHVMYTIH: -1.01
LENIEPLQVSFAVLSS: 1.17
QNPCGSKACRRLFGPV: -1.03
DKYDEGLYRFNSLNDL: 0.922
PHKTFRKLRLFDTPHT: -0.888
VLPGGVPSPGASLTSM: 0.483
ATNSSHTDAHEILVSD: 0.384
GPVKLEFDVSDGAT: -0.0659
NSMKELNFSHLPSNSV: 0.221

Series 3
Target: Prothrombin, mature alpha-thrombin (F2, Homo sapiens, UniProt P00734)
Method: aptamer microarray, sandwich
Molecule type: DNA with 2'F-ANA
Medium: in vitro
Concentration: 200 nM
Setting: whole 15-mer aptamer, many near background
Together with: Cy3 exosite-II aptamer, 400 nM
Direction: higher = stronger binding
Endpoint: mean fluorescence intensity
Strand: GGTTGGTGTGGTTGG
2'F-ANA at 1 2 4 5 6 7 9 14 15: 46.7 a.u.
2'F-ANA at 3 4 9 10: 275 a.u.
2'F-ANA at 2 3 4 5 6 7 10 11 15: 59.1 a.u.
2'F-ANA at 5 6 8 9 10 14: 43.4 a.u.
2'F-ANA at 2 5 8 14 15: 44.9 a.u.
2'F-ANA at 3 6 7 9 10 11 13 15: 365 a.u.
2'F-ANA at 4 5 8 9 10 11 13: 89.3 a.u.
2'F-ANA at 3 5 6 9 12 13 14: 58.2 a.u.
2'F-ANA at 1 2 4 7 8 9 11 12 13: 169 a.u.
2'F-ANA at 1 2 5 6 8 11 12 14 15: 63.7 a.u.
2'F-ANA at 1 4 5 6 7 8 9 11 14 15: 55.2 a.u.
2'F-ANA at 1 2 4 6 7 8 11 15: 113 a.u.
2'F-ANA at 1 6 7 8 10 11 12: 77.9 a.u.
2'F-ANA at 1 2 3 10 11 15: 141 a.u.
2'F-ANA at 2 5 6 13 15: 58.9 a.u.
2'F-ANA at 1 2 3 4 6 7 9 11 12 14: 64.7 a.u.
2'F-ANA at 2 3 5 6 9 11 13 15: 65.3 a.u.
2'F-ANA at 1 3 6 7 9 12 13 14 15: 96.6 a.u.
2'F-ANA at 2 4 5 8 10 13 14 15: 51.9 a.u.

Series 4
Target: Histone acetyltransferase KAT6A, both winged helices, GST fusion (KAT6A, Homo sapiens, UniProt Q92794, residues 1-181)
Method: protein binding microarray
Molecule type: double-stranded DNA, one strand shown
Medium: in vitro
Concentration: not given
Setting: 8-mer, flanks averaged, mean of 2 arrays, mostly near background
Reference: not given
Direction: higher = stronger binding
Endpoint: E-score
Residues (chain): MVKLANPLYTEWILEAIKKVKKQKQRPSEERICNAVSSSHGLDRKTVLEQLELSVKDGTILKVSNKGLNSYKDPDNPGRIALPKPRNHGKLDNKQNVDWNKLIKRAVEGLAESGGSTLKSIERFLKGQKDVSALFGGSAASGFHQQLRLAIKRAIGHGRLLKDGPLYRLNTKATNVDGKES
ACATAATC: 0.109
ATAAGGAT: -0.238
GGCGCAAA: 0.228
TAAACTCA: -0.0802
CAAATTTC: -0.225
CATTTTGA: -0.0263
TAACCAAA: -0.207
ATCGGACC: 0.109
ATAATCGA: -0.0262
AAGCCTGA: -0.158
CGGAATAC: 0.128
ACTCGATG: -0.106
AGTTGAGG: -0.176
ACAGTAAA: -0.109
ATAACGCC: 0.0419
ATCTTGCC: 0.0324
TGCGCAAA: 0.166
CGGAGCAG: 0.19
GCGTAGCC: 0.123
ATAGGGTA: -0.138
ATATGAGC: -0.0429
ATAATGTA: -0.138
CGTGCGGC: 0.204
CAGTATGC: 0.0245
AAGACGAA: -0.139

Series 5
Target: Sal-like protein 4, full length isoform B (SALL4, Homo sapiens, UniProt Q9UJQ4-2, residues 1-616)
Method: universal PBM
Molecule type: double-stranded DNA, one strand shown
Medium: in vitro
Concentration: not given
Setting: 8-mer, flanks averaged, mean of replicates
Direction: higher = stronger binding
Endpoint: E-score
Residues (chain): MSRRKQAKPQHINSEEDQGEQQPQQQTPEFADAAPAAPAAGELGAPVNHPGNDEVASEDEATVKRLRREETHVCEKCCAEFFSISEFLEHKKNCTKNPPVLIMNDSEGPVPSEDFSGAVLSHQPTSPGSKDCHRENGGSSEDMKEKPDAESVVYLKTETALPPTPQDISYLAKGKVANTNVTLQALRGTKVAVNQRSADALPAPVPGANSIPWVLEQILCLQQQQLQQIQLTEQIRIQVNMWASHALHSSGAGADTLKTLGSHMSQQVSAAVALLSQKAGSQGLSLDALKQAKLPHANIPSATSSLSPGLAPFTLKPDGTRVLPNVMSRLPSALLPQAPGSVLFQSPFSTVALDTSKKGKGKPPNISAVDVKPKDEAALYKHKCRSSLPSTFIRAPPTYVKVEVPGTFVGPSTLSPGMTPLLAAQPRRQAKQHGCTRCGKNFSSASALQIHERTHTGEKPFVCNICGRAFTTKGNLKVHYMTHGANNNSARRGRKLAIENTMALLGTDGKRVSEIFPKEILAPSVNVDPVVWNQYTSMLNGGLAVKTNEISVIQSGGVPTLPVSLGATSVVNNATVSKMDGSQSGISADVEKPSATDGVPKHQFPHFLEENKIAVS
GCCCCTCA: -0.28
ATGGACGC: -0.12
AATACCGG: -0.0356
GCTCAGTA: 0.0705
CATCGCTC: -0.282
ACAGTCCC: -0.207
GCACAAGA: -0.0772
CATCGTCC: -0.0665
AGCTGGAA: -0.0852
CCCTCTGA: -0.0352
AATCACGT: 0.246
CTTTTGAC: 0.0565
CCGGAACG: -0.228
TCCACTAA: -0.0742
AAGTGCAT: 0.18
GTGGTTTA: 0.0816
ACGTTATG: 0.352
ACGATGAG: 0.0933
TACGTGCA: -0.0366
AAAGCTCG: -0.179
CTGAGGGA: -0.194
CATTTTAG: 0.188
ACTGAACA: 0.103
CGGAGGAA: -0.293
ATTCATCG: 0.0438

Repeated from above (series 4):
ATAGGGTA: -0.138
GCGTAGCC: 0.123
CATTTTGA: -0.0263
CGGAATAC: 0.128
ATAACGCC: 0.0419
